Experimental data pooled from the literature.
Each line is one published result; not all experiments were run side by side. Several values in a cell are separate wells, animals, samples, runs or records. ± marks the error that the study gave.
USP3 ZnF-UBD domain: Ubiquitin carboxyl-terminal hydrolase 3, ZnF-UBD domain (USP3, Homo sapiens, UniProt Q9Y6I4)
UniProt Q9Y6I4, sequence (whole entry, looked up): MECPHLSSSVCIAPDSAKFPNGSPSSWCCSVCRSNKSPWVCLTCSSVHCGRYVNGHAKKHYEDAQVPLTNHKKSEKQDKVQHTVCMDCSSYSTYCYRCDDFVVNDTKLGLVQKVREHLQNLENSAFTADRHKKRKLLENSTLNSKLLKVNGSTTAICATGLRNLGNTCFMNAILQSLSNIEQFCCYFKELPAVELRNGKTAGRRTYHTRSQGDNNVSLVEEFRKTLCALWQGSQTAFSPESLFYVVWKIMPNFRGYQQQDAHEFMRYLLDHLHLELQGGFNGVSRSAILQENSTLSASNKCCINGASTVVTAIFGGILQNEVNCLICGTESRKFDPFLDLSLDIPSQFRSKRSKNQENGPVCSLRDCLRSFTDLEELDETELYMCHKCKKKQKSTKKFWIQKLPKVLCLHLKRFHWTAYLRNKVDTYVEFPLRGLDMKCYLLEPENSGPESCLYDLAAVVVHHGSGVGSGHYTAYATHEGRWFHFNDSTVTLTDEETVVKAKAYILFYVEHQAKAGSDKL
LGB: Beta-lactoglobulin (LGB, Bos taurus, UniProt P02754)
UniProt Q16774, sequence (whole entry, looked up): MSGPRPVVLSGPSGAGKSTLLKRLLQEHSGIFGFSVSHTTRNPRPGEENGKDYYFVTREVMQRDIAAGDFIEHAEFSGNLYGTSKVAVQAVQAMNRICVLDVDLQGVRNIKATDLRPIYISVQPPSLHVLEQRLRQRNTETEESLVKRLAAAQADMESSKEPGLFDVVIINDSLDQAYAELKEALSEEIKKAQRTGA
UniProt P02754, sequence (whole entry, looked up): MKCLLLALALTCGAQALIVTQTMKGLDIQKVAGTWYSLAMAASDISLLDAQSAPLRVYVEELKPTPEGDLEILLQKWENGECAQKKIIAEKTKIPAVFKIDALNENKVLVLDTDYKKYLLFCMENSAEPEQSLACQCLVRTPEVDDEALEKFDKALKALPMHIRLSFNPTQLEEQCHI
UniProt A3M3C8, sequence (whole entry, looked up): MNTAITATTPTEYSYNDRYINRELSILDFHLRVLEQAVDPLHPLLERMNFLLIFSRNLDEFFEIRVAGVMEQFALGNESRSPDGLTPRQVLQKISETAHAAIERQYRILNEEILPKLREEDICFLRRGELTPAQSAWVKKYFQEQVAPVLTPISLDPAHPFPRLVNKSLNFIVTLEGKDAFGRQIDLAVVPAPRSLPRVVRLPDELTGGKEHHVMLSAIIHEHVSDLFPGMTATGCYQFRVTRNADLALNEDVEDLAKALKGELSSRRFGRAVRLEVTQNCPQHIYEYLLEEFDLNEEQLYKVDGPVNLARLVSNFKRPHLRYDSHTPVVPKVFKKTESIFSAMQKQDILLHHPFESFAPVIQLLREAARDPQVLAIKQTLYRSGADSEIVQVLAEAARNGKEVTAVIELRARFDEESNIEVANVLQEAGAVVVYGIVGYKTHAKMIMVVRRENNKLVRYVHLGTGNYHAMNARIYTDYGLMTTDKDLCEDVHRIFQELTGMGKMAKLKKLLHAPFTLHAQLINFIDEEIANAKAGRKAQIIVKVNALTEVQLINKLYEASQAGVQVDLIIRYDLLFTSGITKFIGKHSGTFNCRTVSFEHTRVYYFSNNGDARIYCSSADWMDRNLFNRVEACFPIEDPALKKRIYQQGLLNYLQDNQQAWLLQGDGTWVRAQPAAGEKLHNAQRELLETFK
UniProt P21169, sequence (whole entry, looked up): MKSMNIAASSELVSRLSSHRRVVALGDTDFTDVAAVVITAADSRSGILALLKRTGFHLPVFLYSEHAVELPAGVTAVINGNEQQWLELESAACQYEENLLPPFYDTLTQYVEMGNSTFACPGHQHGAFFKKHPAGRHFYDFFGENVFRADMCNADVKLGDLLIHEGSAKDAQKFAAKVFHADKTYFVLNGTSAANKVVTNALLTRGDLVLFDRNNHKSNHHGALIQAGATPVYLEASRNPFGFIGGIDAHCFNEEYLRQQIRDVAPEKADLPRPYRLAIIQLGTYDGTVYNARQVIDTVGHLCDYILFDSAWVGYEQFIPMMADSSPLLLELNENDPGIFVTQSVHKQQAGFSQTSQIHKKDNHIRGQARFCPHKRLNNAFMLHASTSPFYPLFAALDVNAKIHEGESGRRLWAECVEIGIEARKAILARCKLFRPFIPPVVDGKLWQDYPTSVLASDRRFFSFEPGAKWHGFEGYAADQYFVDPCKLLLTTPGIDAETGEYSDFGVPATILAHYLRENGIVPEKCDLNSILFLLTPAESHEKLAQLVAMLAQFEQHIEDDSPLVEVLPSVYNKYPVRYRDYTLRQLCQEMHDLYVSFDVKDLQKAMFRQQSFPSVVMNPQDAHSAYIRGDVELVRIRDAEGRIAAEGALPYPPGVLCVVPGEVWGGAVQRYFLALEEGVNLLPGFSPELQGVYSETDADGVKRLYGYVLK
UniProt Q04609, sequence (whole entry, looked up): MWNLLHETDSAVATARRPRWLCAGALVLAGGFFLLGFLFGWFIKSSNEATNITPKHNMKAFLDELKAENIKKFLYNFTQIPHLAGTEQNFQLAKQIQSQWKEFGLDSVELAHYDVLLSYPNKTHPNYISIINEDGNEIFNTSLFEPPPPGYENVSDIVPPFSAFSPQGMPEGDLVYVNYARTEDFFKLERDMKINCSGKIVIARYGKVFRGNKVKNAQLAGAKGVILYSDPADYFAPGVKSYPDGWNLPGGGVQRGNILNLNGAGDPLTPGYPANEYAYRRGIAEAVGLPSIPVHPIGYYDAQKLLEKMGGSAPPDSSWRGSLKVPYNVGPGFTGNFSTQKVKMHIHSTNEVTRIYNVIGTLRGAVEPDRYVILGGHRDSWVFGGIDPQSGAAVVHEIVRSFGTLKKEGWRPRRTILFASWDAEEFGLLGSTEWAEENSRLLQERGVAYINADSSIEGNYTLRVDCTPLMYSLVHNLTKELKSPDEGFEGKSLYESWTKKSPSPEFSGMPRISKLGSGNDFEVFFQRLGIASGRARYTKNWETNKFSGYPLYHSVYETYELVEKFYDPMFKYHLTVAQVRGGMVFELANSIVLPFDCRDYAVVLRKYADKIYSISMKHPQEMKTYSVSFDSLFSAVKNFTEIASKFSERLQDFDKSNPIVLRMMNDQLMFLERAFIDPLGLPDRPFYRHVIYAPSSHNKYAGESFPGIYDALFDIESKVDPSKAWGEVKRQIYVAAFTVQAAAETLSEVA
UniProt Q6PL18, sequence (whole entry, looked up): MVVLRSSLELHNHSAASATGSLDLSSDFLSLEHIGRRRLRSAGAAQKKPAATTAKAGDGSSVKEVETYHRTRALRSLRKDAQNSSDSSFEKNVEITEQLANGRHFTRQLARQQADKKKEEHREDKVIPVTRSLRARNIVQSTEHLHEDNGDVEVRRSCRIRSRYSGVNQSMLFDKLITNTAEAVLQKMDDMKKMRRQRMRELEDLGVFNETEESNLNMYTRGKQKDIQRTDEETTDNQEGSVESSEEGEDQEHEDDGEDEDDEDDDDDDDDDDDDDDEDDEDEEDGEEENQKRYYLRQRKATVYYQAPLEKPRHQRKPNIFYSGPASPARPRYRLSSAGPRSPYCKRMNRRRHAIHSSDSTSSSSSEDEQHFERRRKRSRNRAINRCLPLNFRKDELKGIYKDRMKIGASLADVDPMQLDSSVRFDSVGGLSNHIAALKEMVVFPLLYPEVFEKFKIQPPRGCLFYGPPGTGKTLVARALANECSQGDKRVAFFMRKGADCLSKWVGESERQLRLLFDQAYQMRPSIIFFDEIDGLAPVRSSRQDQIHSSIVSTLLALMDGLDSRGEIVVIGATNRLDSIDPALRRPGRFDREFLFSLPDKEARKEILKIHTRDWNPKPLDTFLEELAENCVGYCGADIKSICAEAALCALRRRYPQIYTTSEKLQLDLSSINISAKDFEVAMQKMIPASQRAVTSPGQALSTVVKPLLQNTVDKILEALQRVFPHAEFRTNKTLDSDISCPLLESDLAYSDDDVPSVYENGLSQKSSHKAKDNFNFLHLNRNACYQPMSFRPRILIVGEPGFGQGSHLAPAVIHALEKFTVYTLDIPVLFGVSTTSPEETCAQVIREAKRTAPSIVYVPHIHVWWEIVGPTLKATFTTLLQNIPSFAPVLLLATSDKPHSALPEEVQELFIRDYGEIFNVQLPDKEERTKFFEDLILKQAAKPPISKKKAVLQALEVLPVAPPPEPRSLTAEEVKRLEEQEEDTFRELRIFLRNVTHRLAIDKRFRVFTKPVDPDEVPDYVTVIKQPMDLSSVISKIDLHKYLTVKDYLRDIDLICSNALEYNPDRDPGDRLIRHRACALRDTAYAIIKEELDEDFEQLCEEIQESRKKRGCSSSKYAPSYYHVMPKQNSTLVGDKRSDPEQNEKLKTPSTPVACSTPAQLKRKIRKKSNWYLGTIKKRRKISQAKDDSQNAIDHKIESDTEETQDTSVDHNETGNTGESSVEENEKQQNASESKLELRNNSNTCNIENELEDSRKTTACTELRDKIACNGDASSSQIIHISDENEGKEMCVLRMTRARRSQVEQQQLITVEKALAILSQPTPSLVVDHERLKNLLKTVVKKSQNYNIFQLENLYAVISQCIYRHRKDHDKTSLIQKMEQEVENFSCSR
UniProt P29558, sequence (whole entry, looked up): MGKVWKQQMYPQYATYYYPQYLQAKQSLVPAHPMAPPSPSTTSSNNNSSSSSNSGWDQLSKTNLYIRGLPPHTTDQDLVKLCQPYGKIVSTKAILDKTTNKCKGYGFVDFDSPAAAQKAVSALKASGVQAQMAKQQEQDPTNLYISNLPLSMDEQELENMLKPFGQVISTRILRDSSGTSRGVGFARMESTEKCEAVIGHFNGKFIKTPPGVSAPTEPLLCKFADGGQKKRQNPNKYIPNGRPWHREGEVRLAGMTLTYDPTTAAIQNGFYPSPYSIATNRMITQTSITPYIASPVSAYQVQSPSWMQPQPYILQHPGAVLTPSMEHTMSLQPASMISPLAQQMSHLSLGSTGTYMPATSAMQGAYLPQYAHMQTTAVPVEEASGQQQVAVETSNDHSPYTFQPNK

Structure (SMILES)	tested on	test	test system	conditions	scale	measurement	result
O=[N+]([O-])c1ccc2nn[nH]c2c1	HG3.17 designed enzyme (HG3-Evolved)	stopped-flow tryptophan fluorescence		pH 7, 20 °C		Kd	25 ± 5 µM
O=C(O)CCC(=O)c1cccs1	USP3 ZnF-UBD domain					Kd	195 µM
Cc1ncsc1-c1ccc(CNC(=O)[C@@H]2C[C@H](O)CN2C(=O)[C@@H](NC(=O)C2(F)CC2)C(C)(C)C)c(OCCOc2ccc(CN3CCN(c4cc(-c5ccccc5O)nnc4N)CC3)cc2)c1	SWI/SNF-related matrix-associated actin-dependent regulator of chromatin subfamily A member 4, bromodomain (SMARCA4, Homo sapiens, UniProt P51532)	binding, SPR		6 °C		Kd	1.6 µM
Cn1cc(-c2ccc(-c3cncc(Cl)c3N3CCC4(CCNC4=O)CC3)cc2)cn1	COLO 205	gene expression, microarray, refers to: PCK1 mRNA		concentration not given, 2 h	baseline: untreated cells	log2 fold change	-2.28
CC(C)C[C@H](NC(=O)C[C@H](O)[C@H](CC(C)C)NC(=O)[C@H](Cc1c[nH]cn1)NC(=O)CNC(=O)[C@@H](NC(=O)[C@H](C)NC(=O)[C@H](Cc1c[nH]c2ccccc12)NC(=O)[C@H](CCC(N)=O)NC(=O)[C@@H](Cc1ccccc1)NC(=O)COCCOCCNC(=O)CCC(C(=O)O)N1CCN(CC(=O)O)CCN(CC(=O)O)CCN(CC(=O)O)CC1)C(C)C)C(N)=O (stereo partly drawn) [lutetium-177 labelled]			BALB/c nu/nu mice, brain	intravenous, 250 pmol, 1 h, added: PA 300 µg		tissue uptake	0.03 ± 0.01 %ID/g
COCCN(C)C(=O)c1ccc(C2CCCCC2)cc1		hepatocyte stability	cryopreserved human hepatocytes	1 µM		hepatic clearance	17 mL/min/kg
CCCCCCCC(=O)OC[C@H](COP(=O)(O)O[C@@H]1[C@H](O)[C@H](O)[C@@H](OP(=O)(O)O)[C@H](OP(=O)(O)O)[C@H]1O)OC(=O)CCCCCCC	Kv7.2/Kv7.3(EEE) mutant channel	channel opening, activator, model fit of open probability		model 4, K2, E2 E3 fixed to WT		Kd	96 µM
CN(C)c1ccc(/C=C/c2nc3ccc(OCCOCCOCCCF)cc3s2)cc1	Amyloid-beta precursor protein, Aβ42 aggregates (APP, Homo sapiens, UniProt P05067)	binding, fluorescence saturation binding	preformed amyloid-beta aggregates in PBS			Kd	0.325 ± 0.039 µM
COc1cc(C[C@H]2C(=O)OC[C@@H]2Cc2ccc(OC)c(OC)c2)ccc1O	PDE4D (Homo sapiens, UniProt Q08499)	isothermal titration calorimetry				Kd	1.56 µM
O=C(O)Cc1cccc2cccnc12	USP3 ZnF-UBD domain					Kd	> 1000 µM
CC1=C(/C=C/C(C)=C/C=C/C(C)=C/C=C/C=C(C)/C=C/C=C(C)/C=C/C2=C(C)CCCC2(C)C)C(C)(C)CCC1	LGB	binding, fluorescence quenching	PBS	30 min, 298 K		Kd	0.00168 µM
NC(=O)CCNC(=O)c1ccc([C@H]2[C@@H](F)[C@@H](F)C[C@@H](F)[C@H]2F)cc1		hepatocyte stability	cryopreserved rat hepatocytes	1 µM		hepatic clearance	10 mL/min/kg
Nc1ncnc2c1ncn2[C@@H]1O[C@H](COP(=O)(O)OP(=O)(O)NP(=O)(O)O)[C@@H](O)[C@H]1O	Cell cycle histidine kinase CckA, CA domain (Caulobacter vibrioides, UniProt Q9X688)	isothermal titration calorimetry	Caulobacter crescentus	12 °C, added: c-di-GMP 100 µM		Kd	43 µM
CC[C@H](C)[C@H](NC(=O)[C@H](CCCNC(=N)N)NC(=O)[C@H](CO)NC(=O)[C@H](Cc1ccccc1)NC(=O)[C@H](Cc1ccccc1)NC(=O)[C@H](CC(C)C)NC(=O)[C@H](C)NC(=O)CNC(=O)[C@@H]1CCCN1C(=O)[C@H](CCCNC(=N)N)NC(=O)[C@H](CC(C)C)NC(=O)[C@H](CO)NC(=O)[C@@H](N)CC(N)=O)C(=O)N[C@@H](CC(N)=O)C(=O)N[C@@H](CCCCN)C(=O)N[C@H](C(=O)N[C@@H](CO)C(=O)N1CCC[C@H]1C(=O)N[C@H](C(=O)N[C@H](C(=O)O)[C@@H](C)O)C(C)C)[C@@H](C)O	DNA repair protein REV1, C-terminal domain (Homo sapiens, UniProt Q9UBZ9)	binding, tryptophan fluorescence quenching				Kd	7.9 µM
[H]/N=C(/N)N[C@H]1[C@H](O)[C@@H](O)[C@H](O[C@@H]2O[C@@H](C)[C@](O)(C=O)[C@H]2O[C@@H]2O[C@@H](CO)[C@H](O)[C@@H](O)[C@@H]2NC)[C@@H](N/C(N)=N\[H])[C@@H]1O	de novo protein S23	binding, surface plasmon resonance				Kd	no binding
O=C(O)CCc1ccccc1	USP3 ZnF-UBD domain					Kd	178 µM
CC(=O)N[C@H](C(=O)N[C@@H](CC(N)=O)C(=O)N[C@@H](CO)C(=O)N[C@H]1CSSC[C@@H](C(=O)NCC(=O)N[C@@H](CC(=O)O)C(=O)N[C@@H](CC(=O)O)C(=O)N[C@@H](CCCCNC(=O)CCCC(=O)NCCOCCOCCOCC(=O)NCCCC[C@H](NC(=O)COCCOCCOCCNC(=O)CCCC(=O)NCCCC[C@H](NC(=O)[C@H](CC(=O)O)NC(=O)[C@H](CC(=O)O)NC(=O)CNC(=O)[C@@H]2CSSC[C@H](NC(=O)[C@H](CO)NC(=O)[C@H](CC(N)=O)NC(=O)[C@@H](NC(C)=O)C(C)C)C(=O)N[C@@H](CC(C)C)C(=O)N[C@@H](CC(C)C)C(=O)N[C@@H](CC(C)C)C(=O)N3CCC[C@H]3C(=O)N[C@@H](CC(N)=O)C(=O)N[C@@H](CC(C)C)C(=O)N[C@@H](CC(C)C)C(=O)NCC(=O)N2)C(=O)N[C@@H](CCCCNC(=O)CCCC[C@@H]2SC[C@@H]3NC(=O)N[C@@H]32)C(N)=O)C(=O)NCc2cn(-c3cc(C(=O)NCCCCCC(=O)NCCCCCC(=O)NCCCCCC(=O)NCCCCCC(=O)NCCCCCC(=O)NCCCCCC(=O)NCc4cn(CCCC[C@H](NC(=O)N[C@@H](CCC(=O)O)C(=O)O)C(=O)O)nn4)cc(C(=O)NCCCCCC(=O)NCCCCCC(=O)NCCCCCC(=O)NCCCCCC(=O)NCCCCCC(=O)NCCCCCC(=O)NCc4cn(CCCC[C@H](NC(=O)N[C@@H](CCC(=O)O)C(=O)O)C(=O)O)nn4)c3)nn2)C(=O)N[C@@H](CCCCNC(=O)CCCC[C@@H]2SC[C@@H]3NC(=O)N[C@@H]32)C(N)=O)NC(=O)CNC(=O)[C@H](CC(C)C)NC(=O)[C@H](CC(C)C)NC(=O)[C@H](CC(N)=O)NC(=O)[C@@H]2CCCN2C(=O)[C@H](CC(C)C)NC(=O)[C@H](CC(C)C)NC(=O)[C@H](CC(C)C)NC1=O)C(C)C	FOLH1 (Homo sapiens, UniProt Q04609)	bead phagocytosis, ternary complex model fit		added: PSMA 80 pM, FcγRI 800 pM		Kd	0.05 µM
Cc1cc2nc3c(=O)[nH]c(=O)nc-3n(C[C@H](O)[C@H](O)[C@H](O)COP(=O)(O)OP(=O)(O)OC[C@H]3O[C@@H](n4cnc5c(N)ncnc54)[C@H](O)[C@@H]3O)c2cc1C	RNA-binding motif, single-stranded-interacting protein 1 (RBMS1, Homo sapiens, UniProt P29558)	binding, MS pulldown competition	SW-620 cell lysate			Kd	0.008 µM
O=C(O)Cn1ccc2ccccc2c1=O	USP3 ZnF-UBD domain					Kd	249 µM
Nc1ncnc2c1ncn2[C@@H]1O[C@H](CO[P@](=O)(O)O[P@](=O)(O)O[P@@](=O)(O)S)[C@@H](O)[C@H]1O	GUK1, part: GMP-bound (Homo sapiens, UniProt Q16774)	binding, ITC		added: ADP and GMP 0.5 mM		Kd	8.2 µM and 13.7 µM and 10.8 µM
COc1cc(Cl)c(C(=O)N[C@@H](CN[C@H]2CC[C@@H](N)CC2)Cc2ccc(C#N)cc2)cc1-c1ccc(CN[C@H](C)c2ccc(C)cc2)o1	ATPase family AAA domain-containing protein 2, bromodomain (ATAD2, Homo sapiens, UniProt Q6PL18)	microscale thermophoresis		GST-tagged protein		Kd	0.0849 µM
NC[C@@H]1O[C@H](O[C@H]2[C@@H](O)[C@H](O[C@@H]3[C@@H](O)[C@H](N)C[C@H](N)[C@H]3O[C@H]3O[C@H](CO)[C@@H](O)[C@H](O)[C@H]3N)O[C@@H]2CO)[C@H](N)[C@@H](O)[C@@H]1O	de novo protein S23	binding, NMR				Kd	15 ± 14 µM
CCc1nc2cc3ccccc3cc2cc1C(=O)N[C@@H](C/C=C\C[C@H](NC(=O)c1cc2cc3ccccc3cc2nc1CC)C(=O)N1CCC[C@H]1C(=O)N[C@@H](Cc1ccccc1)C(=O)NCCCN)C(=O)N1CCC[C@H]1C(=O)N[C@@H](Cc1ccccc1)C(=O)NCCCN	HIV-1 frameshift RNA upper stem-loop	surface plasmon resonance				Kd	0.0553 µM
Nc1nc2c(ncn2[C@H]2C[C@H](OP(=O)(O)OP(=O)(O)O)[C@@H](COP(=O)(O)OP(=O)(O)O)O2)c(=O)[nH]1	speC (Escherichia coli, UniProt P21169)					Kd	3.7 µM
O=C(O)CCN1C(=O)c2ccccc2S1(=O)=O	USP3 ZnF-UBD domain					Kd	> 1000 µM
CC(C)=CCC/C(C)=C/C=C/C(C)=C/C=C/C(C)=C/C=C/C=C(C)/C=C/C=C(C)/C=C/C=C(\C)CCC=C(C)C	LGB	binding, fluorescence quenching	PBS	30 min, 303 K		Kd	2.33 µM
O=C(O)CCc1nc2ncccn2n1	USP3 ZnF-UBD domain					Kd	> 1000 µM
O=c1cc(-c2ccc(O)cc2)oc2cc(O)c(O)c(O)c12	Polyphosphate kinase (ppk, Acinetobacter baumannii, UniProt A3M3C8)	binding, surface plasmon resonance				Kd	54.4 µM
O=C(O)CCn1c(=O)oc2ccccc21	USP3 ZnF-UBD domain					Kd	817 µM
C#Cc1c(F)ccc2cc(O)cc(-c3ncc4c(N5CC6CCC(C5)N6)nc(OC[C@@]56CCCN5C[C@H](F)C6)nc4c3F)c12	GTPase HRas, GDP-bound (HRAS, Homo sapiens, UniProt P01112)	SPR				Kd	3.4 µM

A few entries again:
Structure (SMILES)	tested on	test	test system	conditions	scale	measurement	result
NC(=O)CCNC(=O)c1ccc([C@H]2[C@@H](F)[C@@H](F)C[C@@H](F)[C@H]2F)cc1		hepatocyte stability	cryopreserved rat hepatocytes	1 µM		hepatic clearance	10 mL/min/kg
Nc1ncnc2c1ncn2[C@@H]1O[C@H](COP(=O)(O)OP(=O)(O)NP(=O)(O)O)[C@@H](O)[C@H]1O	Cell cycle histidine kinase CckA, CA domain (Caulobacter vibrioides, UniProt Q9X688)	isothermal titration calorimetry	Caulobacter crescentus	12 °C, added: c-di-GMP 100 µM		Kd	43 µM
CC[C@H](C)[C@H](NC(=O)[C@H](CCCNC(=N)N)NC(=O)[C@H](CO)NC(=O)[C@H](Cc1ccccc1)NC(=O)[C@H](Cc1ccccc1)NC(=O)[C@H](CC(C)C)NC(=O)[C@H](C)NC(=O)CNC(=O)[C@@H]1CCCN1C(=O)[C@H](CCCNC(=N)N)NC(=O)[C@H](CC(C)C)NC(=O)[C@H](CO)NC(=O)[C@@H](N)CC(N)=O)C(=O)N[C@@H](CC(N)=O)C(=O)N[C@@H](CCCCN)C(=O)N[C@H](C(=O)N[C@@H](CO)C(=O)N1CCC[C@H]1C(=O)N[C@H](C(=O)N[C@H](C(=O)O)[C@@H](C)O)C(C)C)[C@@H](C)O	DNA repair protein REV1, C-terminal domain (Homo sapiens, UniProt Q9UBZ9)	binding, tryptophan fluorescence quenching				Kd	7.9 µM
[H]/N=C(/N)N[C@H]1[C@H](O)[C@@H](O)[C@H](O[C@@H]2O[C@@H](C)[C@](O)(C=O)[C@H]2O[C@@H]2O[C@@H](CO)[C@H](O)[C@@H](O)[C@@H]2NC)[C@@H](N/C(N)=N\[H])[C@@H]1O	de novo protein S23	binding, surface plasmon resonance				Kd	no binding
